Results of several laboratories.
A part holds a random share of what one study measured. Substitutions count along the parent as printed.

Block 1 — technique: RNA Bind-n-Seq; molecule type: RNA; medium: in vitro; concentration: 365 nM; reference: no-protein control; reading: higher = stronger binding; measurement: RBNS enrichment (R)
Target: RNA binding protein fox-1 homolog 2, RRM domain, GST-SBP tag (RBFOX2, Homo sapiens, UniProt O43251-10, residues 100-194)
Notes: natural RNA segment, single round, ends assumed
Construct (chain): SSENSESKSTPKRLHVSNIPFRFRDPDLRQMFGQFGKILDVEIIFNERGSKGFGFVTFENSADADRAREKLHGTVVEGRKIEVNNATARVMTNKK
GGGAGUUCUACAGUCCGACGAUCUUUUAAGCUGCAGCCCCGCUGUUCCUUUUCUCCUCUGUCCCAUUUCCUACCUUACAUGAAAUCCAUUCAACCGGCUCUGGACACUUCUCUUAUCUGUUCCCUUCCUGGUUUGGAAUUCUCGGGUGCCAA: 0.283
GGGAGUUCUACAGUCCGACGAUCGCACCCAAUAAUAAUUAAAUAAAUAAAAACAAGGAAUUCUGUUCUUUUGCUUUAUCAGGAACACCAAAAUGAAUUCAGGAGUUUGACUCCCUUAAAAUCUGGUCUGCUUAUGGAAUUCUCGGGUGCCAA: 0.653
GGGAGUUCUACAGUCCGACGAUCUUUGCUUUUGUUUGCUUUAGCUUGGUAACAGCGGUGAAUAGAGUGUAGUGUAAGUGGAGAACCAGGAUCCUGAGAUGAGCUUGAGCUUUAAAAACUUGGGACUAUACAUGUGGAAUUCUCGGGUGCCAA: 0.461
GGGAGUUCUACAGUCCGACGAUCAACAAUUGUUUUGAGAGAGAUGGCUGGUCAUGCCACAGCUGCUGGGGACUCCGCCUACUCCAGCCCUCUUGGGACACACUGUGGGAUUUGUGGCCCUUCCCCAGAGGAAUUGGAAUUCUCGGGUGCCAA: 0.55
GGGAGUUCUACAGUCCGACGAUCAUUUUAUUAUUUUUUUCUUACAGAAAUAUUUUUAAAAAUUAAAGAAAAUCUCAAGUGAAAAAGAAUUAACCUGUUAAAUCAGAAUGGUUCUCUUUGACCCGUUCUGGUCUUGGAAUUCUCGGGUGCCAA: 0.576
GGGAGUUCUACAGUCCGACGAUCGAGGUUGGGGGGCAGAGUCCCAGAGCAGCCCUUUACCCCAGGUCCAGGCCCUGGAAUCCUGAGACUCGCGUUUCCUUGGCCAGUGGUAACACAGGACGUGUGUGCGCAUGUGGAAUUCUCGGGUGCCAA: 0.982
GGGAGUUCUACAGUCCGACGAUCUUUGAAGCUUCCAAUUUGCUUGCUGCUGCUGCUGCCUGGGGGCCAGGACAGAGGUAGUGGCGGCCCCCAUGCCGCCCUCCUUGAGCUGGUGAGGAGAAGUCGCCAUUGAGUGGAAUUCUCGGGUGCCAA: 1.1
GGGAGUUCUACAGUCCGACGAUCGAAAUGAUUCUUAAGUUAUUGGUAAAAUAUAACUUUCUCAGUUUUUAAAAGUUUACAAAAUUUUUUUUUUUGUUUUGAGACAGAGUAUGGCUUUGUUACCCAGGCUGGAUUGGAAUUCUCGGGUGCCAA: 0.886
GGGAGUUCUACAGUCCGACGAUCCAAAAGGUGUCUAUAGAACUAGUGGGGCUUCUGCAUGUGAAAAACGGUUUUCCAUAGGCAUUAAAGUGCUGAAUGCUCAGUCUGAUCAACAAGUGGGCACCUGCACUACCUGGAAUUCUCGGGUGCCAA: 2.5
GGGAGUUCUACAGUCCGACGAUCUGUUUAUAAACUGAAAAGGUACCGGGUCUUACAGCAUUUUAUAUAUCACACCUUUACAGAAUAACAUGAUGGCAAUAUACAUACGUGAUAUUGUUAGGUGGAAUAACUUAUGGAAUUCUCGGGUGCCAA: 1.33
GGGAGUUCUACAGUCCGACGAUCAAUUGUACCACCAUCCCCCGCUGCUCACCAAACAUGGGCGUACUGGAAGGCUGUUAUACUCAGUGCCCGCCUUUGACCUAAAGCUGGCCAGCAUCCCUGGGGAAACCUGAUGGAAUUCUCGGGUGCCAA: 0.429
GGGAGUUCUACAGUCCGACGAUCUGGUUUAUUGGAUGUGAUGGACGUUCUGUAAUAGAAAACCUGAAACGAUGAUUGAAUGGGAAAAAGAGACUACAAAAUUUGUCGUAGGAUGUAUACAGACUUAUUUUCUUUGGAAUUCUCGGGUGCCAA: 1.05

Block 2 — technique: DHFR PCA, deep sequencing; medium: yeast; added: (+)-ABA 0.0091 µM; reference: wild-type fitted maximum; reading: higher = stronger binding; measurement: relative binding score
Target: ABI1, truncated, D143A, DHFR fusion (Arabidopsis thaliana)
Notes: methotrexate growth selection, single substitutions
Starting sequence: PYL1, truncated, DHFR fusion (Arabidopsis thaliana); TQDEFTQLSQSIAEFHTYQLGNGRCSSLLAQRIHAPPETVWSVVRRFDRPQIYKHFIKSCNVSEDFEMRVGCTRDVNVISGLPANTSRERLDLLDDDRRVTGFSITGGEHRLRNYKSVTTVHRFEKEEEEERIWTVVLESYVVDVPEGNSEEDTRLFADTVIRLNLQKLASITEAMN; partner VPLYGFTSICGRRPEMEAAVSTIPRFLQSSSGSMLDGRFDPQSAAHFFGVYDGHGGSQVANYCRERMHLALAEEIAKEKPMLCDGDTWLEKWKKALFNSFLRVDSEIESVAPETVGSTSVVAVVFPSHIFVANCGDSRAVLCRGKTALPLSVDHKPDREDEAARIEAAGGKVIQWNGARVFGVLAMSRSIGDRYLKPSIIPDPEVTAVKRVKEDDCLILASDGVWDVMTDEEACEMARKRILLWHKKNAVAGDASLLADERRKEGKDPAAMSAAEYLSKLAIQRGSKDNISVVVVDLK
L93H: 2.15%
V137Y: -9.44%
Y115W: 17.9%
S11L: 1.84%
F103A: -4.14%
E89C: 5.16%
G81W: 3.92%
F157T: -1.08%
D65C: 1.47%
C25E: -0.453%
E125V: 40.2%
T119A: 0.838%
S27Q: -0.245%
E109M: -1.79%

Block 3 — target: CCNA2, cyclin fold, Cln2 fusion (human); technique: yeast growth competition, sequencing; medium: yeast; notes: weak parent motif; reference: not given; reading: higher = stronger binding; measurement: normalised enrichment score
Starting sequence: MASTL docking peptide (human); PMIAKNLMCELDE
PMIADNLMCELDE [K5D]: -0.127
PMHAKNLMCELDE [I3H]: -0.027
PMPAKNLMCELDE [I3P]: -0.277
PMIALNLMCELDE [K5L]: -0.34
PMIAENLMCELDE [K5E]: -0.3
PMLAKNLMCELDE [I3L]: -0.202
PLIAKNLMCELDE [M2L]: 0.0666
PMIAKNLHCELDE [M8H]: -0.0195

Single results of other studies
PhoQ, residues 284 288 289 292 302 303 SSCLAV  fold induction (PhoP, residues 12 14 15 18 19 NQGLL (Escherichia coli, UniProt P23836); Sort-seq, measured: YFP reporter; E. coli; PhoQ-PhoP variant library, added: 10 µM Mg2+; reference: high Mg2+ state, higher = stronger signaling): 6.48

For quick reference, copied from above (block 2):
Y115W: 17.9%
E109M: -1.79%
V137Y: -9.44%
C25E: -0.453%
S27Q: -0.245%
E125V: 40.2%
